Published values from different studies.
Protocols differ between the studies behind these lines. Several values in a cell are separate wells, animals, samples, runs or records. Numbers after ± are the reported error. ≈ marks a conversion by molar mass, not a printed value.
TDP1: Tyrosyl-DNA phosphodiesterase 1 (TDP1, Homo sapiens, UniProt Q9NUW8)
UniProt Q9NUW8, sequence (whole entry, looked up): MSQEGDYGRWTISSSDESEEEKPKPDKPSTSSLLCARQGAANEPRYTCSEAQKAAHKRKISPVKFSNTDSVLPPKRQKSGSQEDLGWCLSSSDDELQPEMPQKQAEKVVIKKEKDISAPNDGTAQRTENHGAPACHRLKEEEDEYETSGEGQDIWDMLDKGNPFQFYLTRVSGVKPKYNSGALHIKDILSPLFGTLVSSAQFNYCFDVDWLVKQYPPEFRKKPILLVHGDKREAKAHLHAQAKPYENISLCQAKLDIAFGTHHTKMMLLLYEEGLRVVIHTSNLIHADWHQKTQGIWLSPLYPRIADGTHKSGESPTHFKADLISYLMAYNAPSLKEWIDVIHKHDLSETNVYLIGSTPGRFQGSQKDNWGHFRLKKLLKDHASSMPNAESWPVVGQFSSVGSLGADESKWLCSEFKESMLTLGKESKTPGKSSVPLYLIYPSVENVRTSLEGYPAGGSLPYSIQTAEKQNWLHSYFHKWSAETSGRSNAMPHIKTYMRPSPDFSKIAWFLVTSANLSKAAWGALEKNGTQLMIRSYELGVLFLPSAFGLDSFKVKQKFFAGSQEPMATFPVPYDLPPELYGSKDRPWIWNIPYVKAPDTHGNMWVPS
UniProt P0A7A9, sequence (whole entry, looked up): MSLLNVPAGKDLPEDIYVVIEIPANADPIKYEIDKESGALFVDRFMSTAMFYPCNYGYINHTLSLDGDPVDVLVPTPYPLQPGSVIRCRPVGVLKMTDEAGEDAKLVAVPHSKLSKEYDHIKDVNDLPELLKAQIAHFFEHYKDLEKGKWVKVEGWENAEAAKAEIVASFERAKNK

Structure (SMILES)	target or system	assay	system	setting	how to read	quantity	value
CCCC[C@H](NC(=O)COCCOCCNC(=O)CN1CCN(CC(=O)O)CCN(CC(=O)O)CC1)C(=O)N[C@H]1CC(=O)NCCCC[C@@H](C(N)=O)NC(=O)[C@H](Cc2c[nH]c3ccccc23)NC(=O)[C@H](CCCNC(=N)N)NC(=O)[C@@H](Cc2ccccc2)NC(=O)[C@H](Cc2c[nH]cn2)NC1=O [fluorine-18 labelled]	–	HPLC	C57 mice melanoma-bearing, urine	1 h	–	defluorination	~10%
Cc1nc(N)nc2c1C(=O)N[C@@H](c1ccc(F)cc1-c1cccc(O[11CH3])n1)C2	–	ex vivo biodistribution	mice, MDA-MB-231 subcutaneous xenograft, lungs	60 min post-injection, baseline, vehicle pre-treatment	–	SUV	2.4 ± 0.3
O=c1cc(/C=C/c2ccc(N3CCCC3)cc2)oc(/C=C/c2ccc(N3CCCC3)cc2)c1	–	–	acetonitrile	10 µM, 298 K	–	emission maximum	559 nm
Cc1cc(NC(=O)c2ccc(Br)cc2)n[nH]1	–	–	aqueous buffer	pH 7.4	–	thermodynamic solubility	15.9 µg/mL (≈ 56.8 µM)
OC1(C(F)(F)F)CCN(c2nc(Nc3ccnc(C(F)(F)F)c3)nc(-c3cccc(C(F)(F)F)n3)n2)C1 (centres unmarked)	–	–	monkey, both sexes, plasma	intravenous, 1 mg/kg	–	AUC(0-inf)	8910 ± 931 ng·h/mL
CC(C)(O)c1ncc([S@](N)(=O)=NC(=O)Nc2c3c(cc4c2CCC4)CCC3)s1	–	measured: musculoskeletal-connective tissue disorders	healthy human volunteers	oral, 30 mg single dose, crystalline suspension	–	subjects with TEAEs	17%
COc1ccc(Nc2nc(Nc3ccc(OCCOCCOCC[18F])cc3)ncc2Br)cc1	–	–	ICR mice, S180 tumour-bearing, liver	intravenous, 370 kBq, 5 min	–	tissue uptake	4.14 ± 0.12 %ID/g
Cc1[nH]c(=O)c(CNC(=O)c2cc(Cl)c3c(c2C)O[C@@](C)([C@H]2CC[C@H](N(C)C)CC2)O3)c(C)c1O	–	radiochromatography	human, feces	oral, 200 mg	relative to: dose	fecal excretion	1.3% and 11.5% and 3.7% and 5.3%
CCCC[C@H](NC(=O)CNC(=O)CNC(=O)[C@H](CCCCNC(=O)[C@H](CC(=O)O)NC(=O)C(C)c1ccc(CC(C)C)cc1)NC(=O)CN1CCN(CC(=O)O)CCN(CC(=O)O)CCN(CC(=O)O)CC1)C(=O)N[C@H]1CC(=O)NCCCC[C@@H](C(N)=O)NC(=O)[C@H](Cc2c[nH]c3ccccc23)NC(=O)[C@H](CCCNC(=N)N)NC(=O)[C@@H](Cc2ccccc2)NC(=O)[C@H](Cc2c[nH]cn2)NC1=O (some centres unmarked) [lutetium-177 labelled]	–	–	C57 mouse, urine	intravenous, 0.037 MBq, 24 h	–	excretion	88.1 ± 2.92%
O=C(Nc1cnccc1-c1ccc([18F])cc1)c1ccnc(NC(=O)C2CC2)c1	–	–	FVB/NJ mice (both sexes), hippocampus	intravenous, dose not given, 120 min, with: tariquidar 15 mg/kg i.v. pre-dose	–	SUV	0.25
CCC(CC)n1c(Cc2cccs2)nc2cc(C(=O)NC(CC(=O)O)CC(C)C)ccc21 (centres unmarked)	–	–	normal mice	dose not given, 2 weeks	–	cardiomyocyte surface area	increased
CN(C)C(=O)c1cccc(N2Cc3cn(Cc4cccc(F)c4)nc3C2)c1	–	metabolic stability	rat, liver microsomes	–	–	half-life	0.8 h
CCCCNC(CCCC)CSS(=O)(=O)O (centres unmarked)	–	–	Swiss Webster mice, Schistosoma mansoni infected	100 mg/kg	relative to: vehicle control	body weight decrease	13%
CS(=O)(=O)c1cc(Cl)cc(-c2cc(Cl)c(Cl)cc2Cl)c1Cl	–	–	whole cow milk	100 nM nominal	–	dose fraction in skim milk	7.16%
CCCCN1C(=O)c2cccc3c(NCCCCN4CCOCC4)ccc(c23)C1=O	–	–	ethylene glycol	–	–	emission maximum	544 nm
N#Cc1cccc(-n2cccc2C=NOCc2ccc(-c3nc4cc(-c5ccccc5)ccn4c3Nc3ccc(C(=O)O)cc3)cc2)c1	TDP1	enzyme activity, inhibitor	–	100 µM, unpurified compound	–	inhibition	39.8%
CC(=O)N[C@@H](CCCCN)C(=O)N[C@H](C(=O)N[C@@H](Cc1ccc(O)cc1)C(=O)N[C@@H](Cc1ccc(O)cc1)C(=O)N[C@@H](CCCNC(=N)N)C(=O)N[C@@H](Cc1ccc(O)cc1)C(=O)N[C@@H](CC(N)=O)C(=O)NCC(=O)N[C@@H](CCCCN)C(=O)N[C@H](C(=O)N[C@@H](Cc1c[nH]c2ccccc12)C(=O)N[C@@H](Cc1c[nH]c2ccccc12)C(=O)N[C@@H](CCCNC(=N)N)C(=O)O)C(C)C)C(C)C	–	circular dichroism	free peptide in solution	concentration not given, 25 °C, no insulin present	–	β-strand content	35.2%
CN1CCC[C@]1(C)/C=C/S(=O)(=O)NC(=O)Nc1c2c(cc3c1CCC3)CCC2	–	measured: alanine aminotransferase increased, probably related	human	oral, 50 mg twice daily, 14 days, multiple ascending dose	–	subjects with adverse event	0%
CN(C)C(=O)c1ccnc(N2Cc3cn(Cc4cccc(C(F)(F)F)c4)nc3C2)n1	–	metabolic stability	rat, liver microsomes	–	–	half-life	1.5 h
CC(=O)N([O-])CCCCCNC(=O)CCC(=O)N([O-])CCCCCNC(=O)CCC(=O)N([O-])CCCCCN.[89Zr+4]	–	–	0.9 % NaCl saline	1 days, pH 4.5, 37 °C	–	intact compound	97.8 ± 1.6%
C=C(NC(=O)c1csc(-c2nc3c(cc2O)-c2nc(cs2)C(=O)NC(C(C)O)C(=O)NC(=C(C)OC)c2nc(cs2)C(=O)NC2c4nc(cs4)C(=O)NC(COC(=O)c4c5c6c(cccc6n4O)COC(=O)C(OC4CC(C)(O)C(N(C)C)C(C)O4)C2OC5)c2nc-3cs2)n1)C(N)=O (centres unmarked)	–	–	Sprague-Dawley rat, female, plasma	intravenous infusion, 18 mg/kg single dose	–	AUC(0-last)	5810 ng·h/mL
c1ccc(CN2Cc3cccc(n3)CN(Cc3ccccn3)Cc3cccc(n3)C2)nc1	–	voltammetry, Nernst equation	–	Mn(III) complex	–	stability constant log β	6.31

Structure (SMILES)	target or system	assay	system	setting	how to read	quantity	value
CC[C@H](C)[C@@H]1NC(=O)[C@H](Cc2ccc(O)cc2)NC(=O)CCCSC[C@@H](C(=O)N(CC(=O)N[C@@H](CC(C)C)C(=O)NCC(N)=O)Cc2ccc(F)cc2)NC(=O)[C@H](CC(N)=O)NC(=O)[C@H](CCC(N)=O)NC1=O	–	–	human	intranasal and intravenous, 400 µg intranasal and 20 µg intravenous	–	adverse drug reactions	50%
Nc1nc2cnc(C(=O)N3CCOC[C@@H]3c3ccc(C(F)(F)F)cc3)cc2c2c1COC2	–	–	rat, plasma	–	–	fraction unbound	0.099
C=C[C@]1(C)C[C@@H](OC(=O)CSc2ccc(NC(=O)c3ccco3)cc2)[C@]2(C)[C@H](C)CC[C@]3(CCC(=O)[C@H]32)[C@@H](C)[C@@H]1O	–	–	M. gallisepticum-infected chickens, plasma	intramuscular, 5 mg/kg single dose	–	apparent clearance (CL/F)	55.8 mL/min/kg and 55.9 mL/min/kg
O=C(Nc1cnccc1-c1ccc([18F])nc1)c1ccnc(NC(=O)C2CC2)c1	–	–	FVB/NJ mouse, both sexes, brain	intravenous, 40 min, with: tariquidar 15 mg/kg iv	–	SUV	0.146
CN1Cc2c(NCc3ccc(CN4CCN(c5ccc(C#N)c(F)c5)CC4)cc3)cccc2C(=O)N1C1CCC(=O)NC1=O (centres unmarked)	–	–	mouse xenograft, liver	dose not given	–	organ weight	642 mg
O=S(=O)(NCc1ccncc1)c1ccc(C2CCCCC2)cc1	–	–	CK-p25 mouse	0.3 mg/kg	relative to: vehicle	open field speed change	4 ± 1 cm/s
CCCCN1C(=O)c2cccc3c(NCCCCCN4CCOCC4)ccc(c23)C1=O	–	–	methanol	–	–	emission maximum	534 nm
COc1cccc(OC)c1-c1cc(C(=O)NC2(C(=O)O)C3CC4CC(C3)CC2C4)nn1-c1ccc(C(=O)N(C)CCCN(C)C(=O)[C@H](CCCCNC(=O)[C@H](CC(C)C)NC(=O)C2OC2C(=O)O)NC(=O)CN2CCN(CC(=O)[O-])CCN(CC(=O)[O-])CCN(CC(=O)[O-])CC2)cc1C(C)C.[177Lu+3] (mixture of isomers)	–	–	mouse HT-29 xenograft	72 h, biodistribution	relative to: tumour over spleen	tumour-to-spleen ratio	7.25
CSCc1cn(-c2cccc(C(=O)N3CCC(c4nc(-c5ccccc5)n[nH]4)CC3)c2)nn1	–	–	DPBS	2 µM	–	stability half-life	> 48 h
C=CC(=O)Nc1cc(Nc2nccc(-c3c[nH]c4ccccc34)n2)c(OC)cc1N(C)CCN(C)C	–	storage stability	human dried blood spots	5 h, on ice, medium QC level	–	recovery	82.2%
COc1cccc(OC)c1-c1cc(C(=O)NC2(C(=O)O)C3CC4CC(C3)CC2C4)nn1-c1ccc(C(=O)N(C)CCOCCN(C)C(=O)[C@H](CCCCNC(=O)[C@H](CC(C)C)NC(=O)C2OC2C(=O)O)NC(=O)CN2CCN(CC(=O)[O-])CCN(CC(=O)[O-])CCN(CC(=O)[O-])CC2)cc1C(C)C.[177Lu+3] (mixture of isomers)	–	–	mouse HT-29 xenograft	72 h, biodistribution	relative to: tumour over spleen	tumour-to-spleen ratio	3.32
COc1cc(C=NOCc2ccc3nc(-c4ccccc4)c(Nc4ccc(C(=O)O)cc4)n3c2)c(O)c(CN2CCOCC2)c1 (mixture of isomers)	TDP1	enzyme activity, inhibitor	–	100 µM, unpurified compound	–	inhibition	9.9%
C[N+]1(Cc2ccc3ccccc3c2)CCN(CCCN2c3ccccc3Sc3ccc(Cl)cc32)CC1	Inorganic pyrophosphatase (ppa, Escherichia coli, UniProt P0A7A9)	inhibitor, counter-screen, coupling enzyme alone	–	–	–	IC50	54.6 µM
O=C1NC(=O)/C(=C/c2ccc3ncnc(N4CCC(F)CC4)c3n2)S1	–	–	NSG mice	dose not given, day 5	–	body weight	20.3 g and 18.7 g and 16.7 g
NCCCC[C@H](NC(=O)[C@H](Cc1c[nH]c2ccccc12)NC(=O)[C@H](CCCCN)NC(=O)[C@@H](N)Cc1c[nH]c2ccccc12)C(=O)N[C@@H](Cc1c[nH]c2ccccc12)C(=O)O	–	–	MOLM-13 cell medium	10% serum	–	time to complete degradation	≤ 1 h
COc1ccnc(C(=O)N[C@H]2COC(=O)[C@H](Cc3ccccc3)[C@@H](OC(=O)C(C)C)[C@H](C)OC2=O)c1O	–	–	silt loam soil	organic carbon 1.0 %, pH 5.5	–	Freundlich adsorption coefficient Kf	21.5 mL/g
CCCCN1C(=O)c2cccc3c(NCCCCCCN4CCOCC4)ccc(c23)C1=O	–	–	DMSO	–	–	fluorescence lifetime	10.5 ns
Cc1cc(-c2ccc(C(=O)[C@@H]3CCCC[C@H]3C(=O)Nc3cnn4c3C(=O)NCC4)cc2)[nH]n1	–	–	human, urine	oral, 200 mg, 0-96 h	relative to: dose	cumulative radioactivity recovery	4.96% and 5.59% and 6.58% and 6.28% and 4.92% and 6.77%
CCCCN1C(=O)c2cccc3c(NCCN4CCOCC4)ccc(c23)C1=O	–	–	dioxane	–	–	emission maximum	504 nm
COc1cccc(OC)c1-c1cc(C(=O)NC2(C(=O)O)C3CC4CC(C3)CC2C4)nn1-c1ccc(C(=O)N(C)CCCN(C)CCCN(C)C(=O)[C@H](CCCCNC(=O)[C@H](CC(C)C)NC(=O)C2OC2C(=O)O)NC(=O)CN2CCN(CC(=O)[O-])CCN(CC(=O)[O-])CCN(CC(=O)[O-])CC2)cc1C(C)C.[177Lu+3] (mixture of isomers)	–	–	mouse HT-29 xenograft	72 h, biodistribution	relative to: tumour over pancreas	tumour-to-pancreas ratio	36.6
CCCCN1C(=O)c2cccc3c(NCCCCCCCCN4CCOCC4)ccc(c23)C1=O	–	–	ethylene glycol	–	–	emission maximum	545 nm
C/C(N)=N/C(=N\S(=O)(=O)c1ccc(C(F)(F)F)cc1)N1C[C@H](c2ccccc2)C(c2ccc(Cl)cc2)=N1	–	–	male C57BL/6 mouse, liver	oral, 10 mg/kg	–	Cmax	8890 ng/mL

A few entries again:
Structure (SMILES)	target or system	assay	system	setting	how to read	quantity	value
CSCc1cn(-c2cccc(C(=O)N3CCC(c4nc(-c5ccccc5)n[nH]4)CC3)c2)nn1	–	–	DPBS	2 µM	–	stability half-life	> 48 h
CCCCNC(CCCC)CSS(=O)(=O)O (centres unmarked)	–	–	Swiss Webster mice, Schistosoma mansoni infected	100 mg/kg	relative to: vehicle control	body weight decrease	13%
COc1cccc(OC)c1-c1cc(C(=O)NC2(C(=O)O)C3CC4CC(C3)CC2C4)nn1-c1ccc(C(=O)N(C)CCCN(C)CCCN(C)C(=O)[C@H](CCCCNC(=O)[C@H](CC(C)C)NC(=O)C2OC2C(=O)O)NC(=O)CN2CCN(CC(=O)[O-])CCN(CC(=O)[O-])CCN(CC(=O)[O-])CC2)cc1C(C)C.[177Lu+3] (mixture of isomers)	–	–	mouse HT-29 xenograft	72 h, biodistribution	relative to: tumour over pancreas	tumour-to-pancreas ratio	36.6
CCCCN1C(=O)c2cccc3c(NCCCCCCN4CCOCC4)ccc(c23)C1=O	–	–	DMSO	–	–	fluorescence lifetime	10.5 ns
C/C(N)=N/C(=N\S(=O)(=O)c1ccc(C(F)(F)F)cc1)N1C[C@H](c2ccccc2)C(c2ccc(Cl)cc2)=N1	–	–	male C57BL/6 mouse, liver	oral, 10 mg/kg	–	Cmax	8890 ng/mL
